Measurements gathered from unrelated publications.
Numbers after ± are the reported error.
alkB full length assumed: alkB full length assumed (Escherichia coli, UniProt P05050)
B1: UGT1A9 (Homo sapiens, UniProt O60656); chain GKLLVVPMDGSHWFTMRSVVEKLILRGHEVVVVMPEVSWQLGRSLNCTVKTYSTSYTLEDLDREFKAFAHAQWKAQVRSIYSLLMGSYNDIFDLFFSNCRSLFKDKKLVEYLKESSFDAVFLDPFDNCGLIVAKYFSLPSVVFARGILCHYLEEGAQCPAPLSYVPRILLGFSDAMTFKERVRNHIMHLEEHLLCHRFFKNALEIASEILQTPVTEYDLYSHTSIWLLRTDFVLDYPKPVMPNMIFIGGINCHQGKPLPMEFEAYINASGEHGIVVFSLGSMVSEIPEKKAMAIADALGKIPQTVLWRYTGTRPSNLANNTILVKWLPQNDLLGHPMTRAFITHAGSHGVYESICNGVPMVMMPLFGDQMDNAKRMETKGAGVTLNVLEMTSEDLENALKAVINDKSYKENIMRLSSLHKDRPVEPLDLAVFWVEFVMRHKGAPHLRPAAHDLTWYQYHSLDVIGFLLAVVLTVAFITFKCCAYGYRKCLGKKGRVKKAHKSKTH

Substance | target or system | assay | system | setting | measurement | value
GGAGACCACAUCGAUUCAAUCGAAAUGAGAGCCAAGUGGAGAAAGAAGAGAACUAGAAGACUUAAGAGAAAGAGACGGAAGGUGAGAGCCAGAUCCAAAUAAGCGGAUUAUGAGUAAAUAACUCUAAUUUUGUUUUAAAUUCUUUCAAGAGUAUCGUAAUGUCAUUGAUGAAUUAACAUGUUAGUUUCUAUUCUACCUCAUAAUGGAUCUAAAUUGCAUACUAAUCUCACGGUGGGGUGUAAACCAUUGCCUACUAUUUAUAUAGUGCUUUAUAUAUGUCUCACAUAGUUUAAUCAAUUGUCCGUUUUUUUGAAAAAAAAAAAAAAAAAAAAAAAAAAAAAA / ACATGTTAATTCATCAATGAC (DNA/mRNA hybrid (Saccharomyces cerevisiae); 5' m7G cap, DNA oligo annealed mid-mRNA) | eIF4G/eIF4E S502C, Cy5 label (Saccharomyces cerevisiae) | single-molecule FRET |  | from koff/kon, upper limit | Kd | 0.016 ± 0.001 nM
GGTGGTGGTAAGATGATGAAGAGAACAGTC / CGCCACACTTCCTTCTCTCTCTCCTCTCCGACGCACTGTTCTCTTCATCATCTTACCACCACC (dsDNA; 5' overhang 33 nt, amino-C6-dT, 3' mismatch) | xthA full length assumed D151N/W212A (Escherichia coli, UniProt P09030) | smFRET |  | added: MgCl2 1 mM | Kd | 0.58 nM
CGGTAAACTGCGTCCGAAGGGGCNTGCAGTGANCCCGAATGGGTCCG (XNA; Ds at 24 and 33, four stems, GAAG/GAAT loops) | VEGFA fragment (Homo sapiens) | SPR |  |  | Kd | 0.0075 nM
AGAAATTGGTACTGTATGAAACGGCAGCTGCACGTCGCG (ssDNA) | alkB full length assumed | NECEEM |  |  | Kd | 426 ± 88 nM
B1 (UGT1A9) | O=c1cc(-c2ccc(O)c(O)c2)oc2ccc(O)cc12 | steady-state kinetics |  | pH 7.4, 37 °C | Km | 1.87 µM
CACTGCTCAUGTACAGAGC (ssDNA; single strand; 5-fluoro-dU at 10) | TDG fragment (Homo sapiens) | single-turnover kinetics |  | extrapolated, saturation not reached | Kd | 4000 nM
AGUGCAAGACGUUCGCAGAUUAGCGAAAAGAGGGUCUCAUUGACUAGUAC (structured RNA; 2'-F pyrimidines, two stem-loops) | TNFRSF17 (Homo sapiens, UniProt Q02223) | qRT-PCR cell binding | COS-7 | 30 min, 37 °C, apparent, transfected, not purified | Kd | 79.4 nM
GTGCCAAAAATTACATGTTTTGTCTTCTGTTTTTGTTGTTTTAATGTAAATTTTGACCATTTGGTCCACTTTTTTCTGCTCGTTTTTATTTCATGCAATCTTCTTGCTGCGCAAGCG (dsDNA (Escherichia coli)) | rutR full length assumed L74A (Escherichia coli, UniProt P0ACU2) | EMSA | double-stranded DNA, one strand shown | added: thymine | binding | binds
GACTGCTGATGAGTCACTTTAACGTGGAGCAAAGATTAAA (ssDNA) | alkB full length assumed | NECEEM |  |  | Kd | 117 ± 10 nM
GGGAGGUGUGUUAGCACACGAUUCAUAAUCAGCUACCCUCCC (XNA aptamer; 2'-F C/U, 3' inverted dT, 5' thiol) | Ly75 28-1723 (Mus musculus, UniProt Q60767) | flow cytometry | A20.Kb | apparent, not purified | Kd | 23 ± 6 nM
GAAGCATCCTCGTCAGTAAAAAGTTAATCTTTTCAACAGCTGTCATAAAGTTGTCACGGCCGAGACTTATAGTCGCTTTGTTTTTATTTTTTAATGTATTTGTACATGGAGAATCTAGAAATAATTTTGTTTAACTTTAAGAAGGAGATATACAAATGGTGAGC (dsDNA (Escherichia coli); blunt) | phoB 1-229, phosphorylated (Escherichia coli, UniProt P0AFJ5) | EMSA | double-stranded DNA, one strand shown |  | Kd | 590 nM
ACAAAGCAAGTGTAACTGTGTAATTATAACATTGGTACACGCACGGGAAAAAACACAGCTAGCAAATTGAAACGT (dsDNA) | MYB52 full length assumed (Arabidopsis thaliana, UniProt Q6R0C4) | EMSA | double-stranded DNA, one strand shown |  | binding | binds
GAGUUGAGUUGAGUUGAGUUGAGUUGAGUUGAGUUGAGUUGAGUUGAGUUGAGUU (ssRNA; single strand) | mtrB full length assumed T30V/K56A (Bacillus subtilis, UniProt P19466) | filter binding |  | added: L-tryptophan 1 mM | Kd | 360 ± 24 nM

Excerpt of the above:
Substance | target or system | assay | system | setting | measurement | value
AGUGCAAGACGUUCGCAGAUUAGCGAAAAGAGGGUCUCAUUGACUAGUAC (structured RNA; 2'-F pyrimidines, two stem-loops) | TNFRSF17 (Homo sapiens, UniProt Q02223) | qRT-PCR cell binding | COS-7 | 30 min, 37 °C, apparent, transfected, not purified | Kd | 79.4 nM
